Measured values gathered from unrelated publications.
Each line is one published result; not all experiments were run side by side. ± gives the spread as reported.
Action: substrate
MIPEP: Mitochondrial intermediate peptidase (MIPEP, Homo sapiens, UniProt Q99797)
MALT1: Mucosa-associated lymphoid tissue lymphoma translocation protein 1 (MALT1, Homo sapiens, UniProt Q9UDY8)

The chains behind the UniProt entries cited, without tags or fusion partners. Residues count along the entry.
UniProt Q99797, 36-713 limits assumed: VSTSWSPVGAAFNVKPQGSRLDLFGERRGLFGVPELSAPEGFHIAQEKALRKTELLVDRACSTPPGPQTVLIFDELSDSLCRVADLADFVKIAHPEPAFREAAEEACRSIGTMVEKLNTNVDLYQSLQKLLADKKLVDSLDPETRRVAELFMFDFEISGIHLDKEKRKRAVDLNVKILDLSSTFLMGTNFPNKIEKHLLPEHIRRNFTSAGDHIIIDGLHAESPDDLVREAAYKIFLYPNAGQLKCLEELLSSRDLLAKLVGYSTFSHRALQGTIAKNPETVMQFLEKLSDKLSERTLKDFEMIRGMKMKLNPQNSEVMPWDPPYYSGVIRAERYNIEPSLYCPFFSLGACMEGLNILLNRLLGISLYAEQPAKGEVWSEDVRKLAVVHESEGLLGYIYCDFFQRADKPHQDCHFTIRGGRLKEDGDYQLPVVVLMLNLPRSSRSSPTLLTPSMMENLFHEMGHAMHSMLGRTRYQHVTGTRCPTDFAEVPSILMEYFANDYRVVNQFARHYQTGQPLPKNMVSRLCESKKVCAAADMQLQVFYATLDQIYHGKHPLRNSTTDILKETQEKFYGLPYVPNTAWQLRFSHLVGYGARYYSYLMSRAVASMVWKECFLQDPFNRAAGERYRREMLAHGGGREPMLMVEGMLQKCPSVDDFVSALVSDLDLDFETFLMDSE
UniProt Q9UDY8, whole entry: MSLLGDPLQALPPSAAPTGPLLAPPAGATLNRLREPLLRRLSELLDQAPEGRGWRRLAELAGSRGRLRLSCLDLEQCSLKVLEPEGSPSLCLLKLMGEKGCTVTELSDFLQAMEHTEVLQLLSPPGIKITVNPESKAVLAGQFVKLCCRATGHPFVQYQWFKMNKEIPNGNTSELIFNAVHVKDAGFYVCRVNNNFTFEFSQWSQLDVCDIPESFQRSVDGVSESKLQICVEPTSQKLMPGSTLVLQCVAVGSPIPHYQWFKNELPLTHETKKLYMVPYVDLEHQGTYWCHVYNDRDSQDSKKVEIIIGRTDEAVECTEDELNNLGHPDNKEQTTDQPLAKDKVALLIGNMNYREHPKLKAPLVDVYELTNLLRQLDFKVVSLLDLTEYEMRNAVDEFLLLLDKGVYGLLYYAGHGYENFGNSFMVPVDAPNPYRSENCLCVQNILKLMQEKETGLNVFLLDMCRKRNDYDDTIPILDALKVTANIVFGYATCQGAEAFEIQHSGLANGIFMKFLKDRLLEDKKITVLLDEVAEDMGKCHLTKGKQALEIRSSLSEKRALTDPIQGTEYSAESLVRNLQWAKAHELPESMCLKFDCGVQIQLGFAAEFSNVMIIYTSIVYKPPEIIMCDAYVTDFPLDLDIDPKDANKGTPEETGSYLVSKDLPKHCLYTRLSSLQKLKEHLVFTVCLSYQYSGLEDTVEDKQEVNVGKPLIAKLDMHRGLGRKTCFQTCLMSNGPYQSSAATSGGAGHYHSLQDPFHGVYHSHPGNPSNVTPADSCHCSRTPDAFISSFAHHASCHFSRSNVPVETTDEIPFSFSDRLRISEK
UniProt Q9UDY8, 329-566 limits assumed: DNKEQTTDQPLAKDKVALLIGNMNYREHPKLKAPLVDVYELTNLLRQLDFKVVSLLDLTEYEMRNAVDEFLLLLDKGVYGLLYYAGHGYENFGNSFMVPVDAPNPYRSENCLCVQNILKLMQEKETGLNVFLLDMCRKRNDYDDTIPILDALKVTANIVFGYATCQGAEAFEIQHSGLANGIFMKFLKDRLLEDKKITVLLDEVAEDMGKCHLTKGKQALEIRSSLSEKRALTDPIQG
UniProt P30419, whole entry: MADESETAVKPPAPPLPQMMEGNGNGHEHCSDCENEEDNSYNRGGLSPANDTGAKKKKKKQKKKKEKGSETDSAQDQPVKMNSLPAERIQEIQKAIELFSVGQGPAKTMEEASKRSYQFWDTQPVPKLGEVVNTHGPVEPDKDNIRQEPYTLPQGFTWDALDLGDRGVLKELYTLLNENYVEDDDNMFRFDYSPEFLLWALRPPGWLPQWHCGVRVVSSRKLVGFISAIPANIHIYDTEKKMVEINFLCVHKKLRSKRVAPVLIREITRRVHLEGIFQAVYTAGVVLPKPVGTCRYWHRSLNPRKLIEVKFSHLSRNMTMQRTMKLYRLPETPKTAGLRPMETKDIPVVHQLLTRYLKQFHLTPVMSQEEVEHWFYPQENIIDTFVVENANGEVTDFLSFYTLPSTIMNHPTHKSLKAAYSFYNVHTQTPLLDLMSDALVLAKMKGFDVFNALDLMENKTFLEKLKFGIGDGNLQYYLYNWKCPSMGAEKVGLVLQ
UniProt Q9UBN7, whole entry: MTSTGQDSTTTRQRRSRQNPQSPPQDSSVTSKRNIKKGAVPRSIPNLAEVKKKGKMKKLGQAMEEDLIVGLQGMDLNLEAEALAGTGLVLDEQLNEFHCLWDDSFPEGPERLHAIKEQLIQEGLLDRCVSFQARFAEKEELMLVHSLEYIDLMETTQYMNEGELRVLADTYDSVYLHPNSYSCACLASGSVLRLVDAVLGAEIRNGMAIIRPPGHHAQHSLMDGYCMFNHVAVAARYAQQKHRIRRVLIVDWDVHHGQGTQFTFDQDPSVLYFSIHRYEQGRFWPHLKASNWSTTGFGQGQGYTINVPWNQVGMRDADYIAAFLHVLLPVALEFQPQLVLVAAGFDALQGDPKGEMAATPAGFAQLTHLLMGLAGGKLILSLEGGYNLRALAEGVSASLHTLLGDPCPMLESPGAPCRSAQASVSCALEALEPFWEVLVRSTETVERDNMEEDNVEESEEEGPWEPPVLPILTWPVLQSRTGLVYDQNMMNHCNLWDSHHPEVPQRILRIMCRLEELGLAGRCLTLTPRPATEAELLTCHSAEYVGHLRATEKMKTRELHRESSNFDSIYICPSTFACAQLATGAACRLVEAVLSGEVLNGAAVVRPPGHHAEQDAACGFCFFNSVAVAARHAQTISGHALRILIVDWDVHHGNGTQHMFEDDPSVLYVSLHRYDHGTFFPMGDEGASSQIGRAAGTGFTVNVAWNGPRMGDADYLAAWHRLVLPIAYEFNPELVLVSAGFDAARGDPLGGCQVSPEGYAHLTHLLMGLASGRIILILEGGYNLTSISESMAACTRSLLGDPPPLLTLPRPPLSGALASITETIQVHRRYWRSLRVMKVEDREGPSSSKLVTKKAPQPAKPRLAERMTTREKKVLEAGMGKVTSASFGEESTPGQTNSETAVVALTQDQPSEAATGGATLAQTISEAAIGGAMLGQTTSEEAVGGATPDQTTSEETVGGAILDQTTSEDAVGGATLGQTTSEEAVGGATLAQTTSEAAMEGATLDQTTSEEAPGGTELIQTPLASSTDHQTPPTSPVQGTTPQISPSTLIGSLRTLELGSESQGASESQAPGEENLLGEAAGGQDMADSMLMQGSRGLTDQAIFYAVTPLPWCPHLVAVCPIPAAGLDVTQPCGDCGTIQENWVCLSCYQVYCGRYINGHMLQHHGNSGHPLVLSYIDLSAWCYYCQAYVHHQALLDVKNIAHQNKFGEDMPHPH
UniProt Q8IXJ6, whole entry: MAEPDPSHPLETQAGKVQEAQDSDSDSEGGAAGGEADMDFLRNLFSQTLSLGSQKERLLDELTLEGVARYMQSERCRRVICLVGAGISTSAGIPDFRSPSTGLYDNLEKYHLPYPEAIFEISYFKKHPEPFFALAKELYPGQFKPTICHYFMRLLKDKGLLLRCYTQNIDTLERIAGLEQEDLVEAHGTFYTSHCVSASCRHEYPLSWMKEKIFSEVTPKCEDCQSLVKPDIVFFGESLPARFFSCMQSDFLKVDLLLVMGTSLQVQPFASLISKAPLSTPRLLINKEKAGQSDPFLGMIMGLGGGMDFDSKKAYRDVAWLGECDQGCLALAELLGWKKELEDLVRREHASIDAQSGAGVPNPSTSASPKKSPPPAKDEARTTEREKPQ
UniProt P17706, whole entry: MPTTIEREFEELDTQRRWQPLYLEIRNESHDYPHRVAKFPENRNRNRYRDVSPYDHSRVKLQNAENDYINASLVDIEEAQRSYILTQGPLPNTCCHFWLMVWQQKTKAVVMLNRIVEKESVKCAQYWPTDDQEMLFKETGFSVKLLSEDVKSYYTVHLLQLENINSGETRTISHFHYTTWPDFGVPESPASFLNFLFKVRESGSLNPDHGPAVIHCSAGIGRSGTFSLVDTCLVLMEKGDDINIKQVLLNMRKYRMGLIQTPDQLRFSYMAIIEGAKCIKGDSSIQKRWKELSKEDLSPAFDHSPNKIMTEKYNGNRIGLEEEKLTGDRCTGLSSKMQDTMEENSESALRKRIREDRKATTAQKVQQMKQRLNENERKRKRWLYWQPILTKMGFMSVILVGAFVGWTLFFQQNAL
UniProt Q9BY41, whole entry: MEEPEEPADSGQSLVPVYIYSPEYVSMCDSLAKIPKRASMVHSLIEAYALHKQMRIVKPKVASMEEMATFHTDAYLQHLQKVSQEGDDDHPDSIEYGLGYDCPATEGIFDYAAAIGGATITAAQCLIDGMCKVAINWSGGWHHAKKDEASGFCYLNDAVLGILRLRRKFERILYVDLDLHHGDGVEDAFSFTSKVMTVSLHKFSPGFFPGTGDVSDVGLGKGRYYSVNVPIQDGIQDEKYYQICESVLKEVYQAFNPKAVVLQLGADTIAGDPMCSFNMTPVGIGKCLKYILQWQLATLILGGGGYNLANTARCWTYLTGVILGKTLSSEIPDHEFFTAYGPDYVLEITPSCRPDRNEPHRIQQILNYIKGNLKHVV
UniProt O60502, whole entry: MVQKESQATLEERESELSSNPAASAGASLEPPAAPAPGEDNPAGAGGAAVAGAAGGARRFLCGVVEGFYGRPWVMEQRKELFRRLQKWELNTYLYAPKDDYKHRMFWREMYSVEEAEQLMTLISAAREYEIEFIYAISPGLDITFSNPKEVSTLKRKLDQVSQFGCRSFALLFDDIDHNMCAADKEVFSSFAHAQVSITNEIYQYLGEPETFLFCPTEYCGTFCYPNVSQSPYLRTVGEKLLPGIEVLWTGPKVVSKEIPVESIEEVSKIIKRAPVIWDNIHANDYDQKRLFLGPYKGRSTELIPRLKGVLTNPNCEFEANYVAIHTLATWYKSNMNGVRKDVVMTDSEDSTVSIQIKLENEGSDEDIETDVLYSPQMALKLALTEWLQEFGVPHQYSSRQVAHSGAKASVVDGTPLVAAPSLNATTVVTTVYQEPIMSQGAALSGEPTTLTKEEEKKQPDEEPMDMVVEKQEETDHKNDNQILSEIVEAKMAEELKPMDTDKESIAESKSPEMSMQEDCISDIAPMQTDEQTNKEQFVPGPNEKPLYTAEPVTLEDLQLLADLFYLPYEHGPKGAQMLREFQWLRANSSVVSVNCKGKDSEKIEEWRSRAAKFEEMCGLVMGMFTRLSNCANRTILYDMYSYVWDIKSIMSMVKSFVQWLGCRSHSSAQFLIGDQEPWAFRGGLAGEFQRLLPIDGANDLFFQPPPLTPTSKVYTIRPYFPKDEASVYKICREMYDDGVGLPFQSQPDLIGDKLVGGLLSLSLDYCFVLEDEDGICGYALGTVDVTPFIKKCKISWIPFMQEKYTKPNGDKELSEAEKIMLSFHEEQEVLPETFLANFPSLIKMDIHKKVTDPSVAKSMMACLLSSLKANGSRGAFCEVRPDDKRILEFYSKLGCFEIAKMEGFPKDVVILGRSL

| SMILES | target | assay | setting | Km [µM] |
| --- | --- | --- | --- | --- |
| N=C(N)NCCC[C@H](NC(=O)[C@H](Cc1ccc(O)cc1)NC(=O)[C@H](Cc1c[nH]cn1)NC(=O)[C@H](CCCNC(=N)N)NC(=O)[C@H](CO)NC(=O)[C@H](CCC(=O)O)NC(=O)[C@H](CCCNC(=N)N)NC(=O)CN)C(=O)O | NMT1 (Homo sapiens, UniProt P30419) |  |  | < 0.1 |
| CC(=O)NCCCC[C@H](NC(=O)CNC(=O)[C@H](CCCNC(=N)N)NC(C)=O)C(N)=O | HDAC6 (Homo sapiens, UniProt Q9UBN7) |  | 25 °C | 600 ± 200 |
| CC(=O)N[C@@H](CCC(N)=O)C(=O)N[C@H](C(=O)N[C@@H](C)C(=O)N[C@@H](CCCNC(=N)N)C(=O)N[C@@H](CCCCNC(=O)CCc1ccc(N=Nc2ccc(N(C)C)cc2)cc1)C(=O)N[C@@H](CO)C(=O)N[C@H](C(=O)NCC(=O)NCC(=O)NCCCNC(=S)Nc1ccc2c(c1)C(=O)OC21c2ccc(O)cc2Oc2cc(O)ccc21)[C@@H](C)O)[C@@H](C)O | SIRT2 (Homo sapiens, UniProt Q8IXJ6) | enzyme activity, plate reader kinetics |  | 0.52 ± 0.059 |
| CC[C@H](C)[C@H](NC(=O)[C@H](CC(=O)O)NC(C)=O)C(=O)N[C@@H](CC(=O)O)C(=O)N[C@@H](CCC(=O)O)C(=O)N[C@@H](Cc1cc(=O)oc2cc(OP(=O)(O)O)ccc12)C(=O)N[C@@H](CC(C)C)C(=O)N[C@@H](C)C(=O)N[C@@H](C)C(N)=O | PTPN2 (Homo sapiens, UniProt P17706) | peptide hydrolysis |  | 320 ± 20 |
| CC(=O)NCCCC[C@H](NC(C)=O)C(=O)N[C@@H](Cc1c[nH]c2ccccc12)C(N)=O | HDAC8 (Homo sapiens, UniProt Q9BY41) |  | 25 °C | > 5000 |
| C[C@H](NC(=O)[C@H](CCCCN)NC(=O)CNC(=O)CNC(=O)[C@@H](NC(=O)[C@@H](NC(=O)[C@H](Cc1c[nH]c2ccccc12)NC(=O)c1ccccc1N)[C@@H](C)O)[C@@H](C)O)C(=O)N[C@@H](CCCCNc1ccc([N+](=O)[O-])cc1[N+](=O)[O-])C(N)=O | MIPEP | FRET peptide hydrolysis |  | 6.2 |
| CC(=O)N[C@@H](CC(C)C)C(=O)N[C@@H](CCCNC(=N)N)C(=O)N[C@@H](CO)C(=O)N[C@@H](CCCNC(=N)N)C(=O)Nc1ccc2c(C)cc(=O)oc2c1 | MALT1 | fluorogenic peptide hydrolysis | 20 min preincubation, pH 7.5, 37 °C, enzyme 399 nM, citrate 0.9 M | 34.5 |
| CC(C)C[C@H](NC(=O)[C@H](CCC(N)=O)NC(=O)[C@@H](NC(=O)[C@H](CCCCN)NC(=O)[C@H](CC(N)=O)NC(=O)[C@H](CCC(N)=O)NC(=O)[C@H](CC(C)C)NC(=O)[C@@H]1CCCN1C(=O)[C@H](CCC(N)=O)NC(=O)CNC(=O)[C@H](CO)NC(=O)[C@H](CCCNC(=N)N)NC(=O)[C@H](Cc1ccccc1)NC(=O)c1ccccc1N)C(C)C)C(=O)N[C@@H](CCC(N)=O)C(=O)NCCNc1ccc([N+](=O)[O-])cc1[N+](=O)[O-] | MIPEP | FRET peptide hydrolysis |  | 0.941 |
| CC(=O)N[C@@H](CC(C)C)C(=O)N[C@H](C(=O)N[C@@H](CO)C(=O)N[C@@H](CCCNC(=N)N)C(=O)Nc1ccc2c(CC(N)=O)cc(=O)oc2c1)C(C)C | MALT1 | fluorogenic peptide hydrolysis | pH 7.5, catalytic domain, sodium citrate 0.9 M | 8.9 |
| CC(=O)N[C@H]1[C@H](OC[C@H](NC(=O)[C@H](Cc2ccc(O)cc2)NC(C)=O)C(=O)N[C@@H](CO)C(N)=O)O[C@H](CO)[C@@H](O)[C@@H]1O | Protein O-GlcNAcase (OGA, Homo sapiens, UniProt O60502) |  | pH 7.5, 37 °C, added: 4MU-GlcNAc 200 µM competition | 2200 ± 100 |
